Assay results gathered from unrelated publications.
Each numbered part is a random draw from the data of one study; scales do not carry over between parts. Positions count from the first letter of the parent shown.

Sample 1 — target: UBE2Z UBC core domain (UniProt Q9H832); technique: yeast two-hybrid; medium: yeast; notes: mostly zero background; relative to: not given; direction: higher = stronger interaction
B1: MARCHF2 RING domain (UniProt Q9P0N8); chain RLLSTVIRALDTPSDGPFCRICHEGANGECLLSPCGCTGTLGAVHKSCLEKWLSSSNTSYCELCHTEFAVEKRPRPLTEWL
B2: TRIM2 RING domain (UniProt Q9C040); chain VRQIDKQFLICSICLERYKNPKVLPCLHTFCERCLQNYIPAHSLTLSCPVCRQTSILPEKGV
B3: RNF115 RING domain (UniProt Q9Y4L5); chain TQEQVDMGLECPVCKEDYTVEEEVRQLPCNHFFHSSCIVPWLELHDTCPVCRKSLNGEDSTR
B4: TRIM68 RING domain (UniProt Q6AZZ1); chain LVEAIVEEVACPICMTFLREPMSIDCGHSFCHSCLSGLWEIPGESQNWGYTCPLCRAPVQPRNLRP
B5: TRIM47 RING domain (UniProt Q96LD4); chain MDGSGPFSCPICLEPLREPVTLPCGHNFCLACLGALWPHRGASGAGGPGGAARCPLCQEPFPDGLQLR
B6: PJA2 RING domain (UniProt O43164); chain DHTAIGQEQCCPICCSEYIKDDIATELPCHHFFHKPCVSIWLQKSGTCPVCRRHFPPAVIEA
B7: RNF7 RING domain (UniProt Q9UBF6); chain AICRVQVMDACLRCQAENKQEDCVVVWGECNHSFHNCCMSLWVKQNNRCPLCQQDWVVQRIGK
B8: RNF10 RING domain (UniProt Q8N5U6); chain VRICSHEVPSCPICLYPPTAAKITRCGHIFCWACILHYLSLSEKTWSKCPICYSSVHKKDLKS
B9: RNF11 RING domain (UniProt Q9Y3C5); chain RDGSEKKIRECVICMMDFVYGDPIRFLPCMHIYHLDCIDDWLMRSFTCPSCMEPVDAALLSS
Target sequence (chain): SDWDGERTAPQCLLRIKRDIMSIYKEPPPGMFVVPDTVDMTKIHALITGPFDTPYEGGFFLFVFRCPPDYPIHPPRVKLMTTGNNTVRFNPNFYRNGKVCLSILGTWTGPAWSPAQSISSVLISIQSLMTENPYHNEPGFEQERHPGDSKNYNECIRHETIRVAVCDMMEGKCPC
Sequence	lacZ reporter activity
B1 (MARCHF2 RING domain)	0
B2 (TRIM2 RING domain)	0
B3 (RNF115 RING domain)	0
B4 (TRIM68 RING domain)	0
B5 (TRIM47 RING domain)	0
B6 (PJA2 RING domain)	5420
AAQLLEEKLTCAICLGLYQDPVTLPCGHNFCGACIRDWWDRCGKACPECREPFPDGAELR (TRIM65 RING domain (UniProt Q6PJ69))	8290
B7 (RNF7 RING domain)	0
B8 (RNF10 RING domain)	0
B9 (RNF11 RING domain)	0
MEEMEEELKCPVCGSFYREPIILPCSHNLCQACARNILVQTPESESPQSHRAAGSGVSDY (TRIM9 RING domain (UniProt Q9C026))	0

Sample 2 — technique: protein-binding microarray; molecule type: double-stranded DNA, one strand shown; medium: in vitro; concentration: 250 nM; notes: 60-bp whole probe; together with: salmon DNA 0.4 mg/ml; relative to: random background probes; direction: higher = stronger binding; constant ends, left off below: GCCTAGCAC … GTCTTGATTCGCTTGACGCTGCTG
Target: Interferon regulatory factor 5, full length, phosphomimetic (IRF5, Homo sapiens, UniProt Q13568-2, residues 1-514, K96S/S451D/S453D/S456D/S462D)
Sequence	log fluorescence
GACGGACTGGGACTGGTGACGTGCTAG	-0.635 z-score
GTGACTCTGAACCTTGGGCTGTGCTAG	-0.653 z-score
GACGATATCGGGACTGAAGACGTGCTA	1.07 z-score
GACGGTCTCGGGCTGGGGACGTGCTAG	-0.504 z-score
TCAAGTAGCTTTCTGAGACTGTGCTAG	0.538 z-score
GACGGTATCAGTCTCGAGACGTGCTAG	1.15 z-score
GACGATTCCAGTTTCGAGGCGTGCTAG	4.27 z-score
GACGGTTTCGGTTCCGTGACGTGCTAG	8.56 z-score
GACGTTATCGGGTTTCGAGACGTGCTA	3.61 z-score
TTAGGACGGGGTCTCGGTTAGTGCTAG	-0.216 z-score
TCAATTTCAGTTTTCTTACTGTGCTAG	4.57 z-score
GACGGACTGCTACTGCTGACGTGCTAG	-0.756 z-score
TTAGAACGGAGTCTCGATTAGTGCTAG	0.395 z-score
GGTGCTGTTTACATAGTTCTGTGCTAG	-0.528 z-score
GACTGTATCGGGACTGGGGACGTGCTA	1.19 z-score
TTAGGTTTCGGTTCCGGTTTGTGCTAG	10.8 z-score
GACGTTATCCTACTGCTGACGTGCTAG	0.27 z-score
TTATGACTGGACACTGGGTTAGTGCTA	0.0731 z-score
GACGATATCAGTATCGAGCCGTGCTAG	2.56 z-score

Sample 3 — technique: RNA Bind-n-Seq; molecule type: RNA; medium: in vitro; concentration: not given; relative to: input RNA pool; direction: higher = stronger binding
Target: RING finger protein unkempt homolog, zinc fingers 1-6, GST-SBP tag (UNK, Homo sapiens, UniProt Q9C0B0, residues 30-357)
Notes: RNA with constant flanks, human and mouse sites, ends assumed
Constant ends, left off below: GGGAGUUCUACAGUCCGACGAUC … CAACAGAGGAUUGAGCAUCA
Construct (chain): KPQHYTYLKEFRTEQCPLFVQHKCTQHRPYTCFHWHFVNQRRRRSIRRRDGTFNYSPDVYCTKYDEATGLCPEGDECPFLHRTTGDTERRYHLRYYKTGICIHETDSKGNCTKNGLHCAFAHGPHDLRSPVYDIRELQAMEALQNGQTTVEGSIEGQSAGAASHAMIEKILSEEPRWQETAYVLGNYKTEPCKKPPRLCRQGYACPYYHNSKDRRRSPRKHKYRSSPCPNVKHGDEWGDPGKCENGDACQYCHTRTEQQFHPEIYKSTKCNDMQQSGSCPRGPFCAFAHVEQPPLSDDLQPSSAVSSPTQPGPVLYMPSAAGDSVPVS
Sequence	bound/input enrichment
GCUGUCAUGUAUGUAUGCAAGGUGGCAGCUGAGUGGAGAAACACCUUCCACAAGGAUGUUGUAGUUGAUCUGGUGUGUUAUCGACGAAAUGGCCACAAUGAGAUGGACGAACCUAUGUUU	0.13 ratio
AAUAAGAUUCAAAGUGAACUGGAUGGAUUACAGUCAGACAAUGAAAUUCUCAAAGCAGCUGUUGAACAUCACAAAGUGCUCUUAGUAGAAAAGGAUCGUGAAUUAAUACGUAAAGUACAA	0.422 ratio
AGGGAAAGAAGCAAGCACAAGCUUUUACAGUAAAGCUUGUAAUCACAUGGGGACCAUACAAUCAUCCUAAAGGAUUUAGAAUUCAAGUGAAAAAACAAACAAACAAACAUUACUAUGUUA	0.51 ratio
UUUCCAGACCAAGGAUACAGAGGCCGAGGCAGAGGCGAGUAUUACUCCAGAGGUCGGAGCUAUAGAGGCUCUUAUGGGGGUCGUGGCAGAGGUGGUAGAGGGCACACUCGUGAGUAUCCU	0.597 ratio
GAGAAAAUCAAGAUCAAGCCAGCCCCGUACCCCAUGGGAAGCAGCCAUGCUUCCGCCAGUAGCAUCAGCUUUAACCCCAGCCCUGAGGAGCCGGCCUAUGAUGGCCCAAGCACCAGCAGU	0.238 ratio
CCAGAAGUGGAAUCUUUACAGGACUAUAAGAAUACAUUUCCCAAAUGGAAACCAGGAAGCCUAGCAUCCCAUGUCAAAAACUUGGAUGAAAAUGGCUUGGAUUUGCUCUCGAAAAUGUUA	0.0933 ratio
CUUCUCAUGACCAACUGUAUCAAGAAUGAUCUUAAUCAUAGCACGCAAUUCGUACAGGGGUUAGCACUUUGUACCCUCGGCUGCAUGGGCUCCUCAGAGAUGUGCAGAGAUCUUGCAGGA	0.238 ratio
CAUAUCACUGAUGUGGUGCUGGACAAGGCCAAUAAAACACCACUUCGGCAACUGGAUCCCUCCAGACUACCUGGCAUAAACUGUGGCCCAGAUUUCACUCCAUCUUUUGCCAAUCUUGGC	0.0482 ratio

Sample 4 — technique: DHFR PCA, deep sequencing; medium: yeast; together with: (+)-ABA 58 µM; relative to: wild-type fitted maximum; direction: higher = stronger binding
Target: ABI1, truncated, D143A, DHFR fusion (Arabidopsis thaliana)
Notes: methotrexate growth selection, single substitutions
Parent: PYL1, truncated, DHFR fusion (Arabidopsis thaliana); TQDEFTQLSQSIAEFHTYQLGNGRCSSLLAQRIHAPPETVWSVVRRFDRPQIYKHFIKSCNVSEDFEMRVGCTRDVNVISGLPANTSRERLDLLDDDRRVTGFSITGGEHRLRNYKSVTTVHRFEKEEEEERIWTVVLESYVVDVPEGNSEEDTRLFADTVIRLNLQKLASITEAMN; partner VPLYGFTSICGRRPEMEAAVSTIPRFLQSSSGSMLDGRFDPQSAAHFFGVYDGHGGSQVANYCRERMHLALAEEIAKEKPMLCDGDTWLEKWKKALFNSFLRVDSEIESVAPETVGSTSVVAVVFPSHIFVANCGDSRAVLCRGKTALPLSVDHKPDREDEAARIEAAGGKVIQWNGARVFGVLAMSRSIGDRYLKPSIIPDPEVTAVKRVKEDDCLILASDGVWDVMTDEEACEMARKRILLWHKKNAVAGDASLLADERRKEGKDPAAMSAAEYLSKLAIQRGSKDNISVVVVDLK
Substitution	relative binding score [%]
V118G	-7.98
G21Q	88.8
R88V	84.3
E109Y	51.6
F66A	78.9
V78Y	51.8
Q10Y	69.9
K58L	64.2
T17Q	82.1
N149V	36.5
V161M	47.7
R88F	77.2
R69D	78.6
G107F	9.26
L112A	1.18
Q19I	79.4
A84V	12.2
H16T	8.5
N114H	82.1
T17G	58.3
I105D	-10.1
S80T	79.1
D48N	60.7
Q51E	63.9
R111D	6.28

A few entries again (sample 2):
Sequence	log fluorescence
GACGGTTTCGGTTCCGTGACGTGCTAG	8.56 z-score
TCAAGTAGCTTTCTGAGACTGTGCTAG	0.538 z-score
GACGGACTGCTACTGCTGACGTGCTAG	-0.756 z-score
GACTGTATCGGGACTGGGGACGTGCTA	1.19 z-score
GTGACTCTGAACCTTGGGCTGTGCTAG	-0.653 z-score
GACGATTCCAGTTTCGAGGCGTGCTAG	4.27 z-score
GACGGTATCAGTCTCGAGACGTGCTAG	1.15 z-score
TTATGACTGGACACTGGGTTAGTGCTA	0.0731 z-score
